Published values pooled from the literature.
Every numbered part comes from another study and shows a few of its results, in no order.
Chain of UniProt Q9Y2I7 (whole entry, looked up): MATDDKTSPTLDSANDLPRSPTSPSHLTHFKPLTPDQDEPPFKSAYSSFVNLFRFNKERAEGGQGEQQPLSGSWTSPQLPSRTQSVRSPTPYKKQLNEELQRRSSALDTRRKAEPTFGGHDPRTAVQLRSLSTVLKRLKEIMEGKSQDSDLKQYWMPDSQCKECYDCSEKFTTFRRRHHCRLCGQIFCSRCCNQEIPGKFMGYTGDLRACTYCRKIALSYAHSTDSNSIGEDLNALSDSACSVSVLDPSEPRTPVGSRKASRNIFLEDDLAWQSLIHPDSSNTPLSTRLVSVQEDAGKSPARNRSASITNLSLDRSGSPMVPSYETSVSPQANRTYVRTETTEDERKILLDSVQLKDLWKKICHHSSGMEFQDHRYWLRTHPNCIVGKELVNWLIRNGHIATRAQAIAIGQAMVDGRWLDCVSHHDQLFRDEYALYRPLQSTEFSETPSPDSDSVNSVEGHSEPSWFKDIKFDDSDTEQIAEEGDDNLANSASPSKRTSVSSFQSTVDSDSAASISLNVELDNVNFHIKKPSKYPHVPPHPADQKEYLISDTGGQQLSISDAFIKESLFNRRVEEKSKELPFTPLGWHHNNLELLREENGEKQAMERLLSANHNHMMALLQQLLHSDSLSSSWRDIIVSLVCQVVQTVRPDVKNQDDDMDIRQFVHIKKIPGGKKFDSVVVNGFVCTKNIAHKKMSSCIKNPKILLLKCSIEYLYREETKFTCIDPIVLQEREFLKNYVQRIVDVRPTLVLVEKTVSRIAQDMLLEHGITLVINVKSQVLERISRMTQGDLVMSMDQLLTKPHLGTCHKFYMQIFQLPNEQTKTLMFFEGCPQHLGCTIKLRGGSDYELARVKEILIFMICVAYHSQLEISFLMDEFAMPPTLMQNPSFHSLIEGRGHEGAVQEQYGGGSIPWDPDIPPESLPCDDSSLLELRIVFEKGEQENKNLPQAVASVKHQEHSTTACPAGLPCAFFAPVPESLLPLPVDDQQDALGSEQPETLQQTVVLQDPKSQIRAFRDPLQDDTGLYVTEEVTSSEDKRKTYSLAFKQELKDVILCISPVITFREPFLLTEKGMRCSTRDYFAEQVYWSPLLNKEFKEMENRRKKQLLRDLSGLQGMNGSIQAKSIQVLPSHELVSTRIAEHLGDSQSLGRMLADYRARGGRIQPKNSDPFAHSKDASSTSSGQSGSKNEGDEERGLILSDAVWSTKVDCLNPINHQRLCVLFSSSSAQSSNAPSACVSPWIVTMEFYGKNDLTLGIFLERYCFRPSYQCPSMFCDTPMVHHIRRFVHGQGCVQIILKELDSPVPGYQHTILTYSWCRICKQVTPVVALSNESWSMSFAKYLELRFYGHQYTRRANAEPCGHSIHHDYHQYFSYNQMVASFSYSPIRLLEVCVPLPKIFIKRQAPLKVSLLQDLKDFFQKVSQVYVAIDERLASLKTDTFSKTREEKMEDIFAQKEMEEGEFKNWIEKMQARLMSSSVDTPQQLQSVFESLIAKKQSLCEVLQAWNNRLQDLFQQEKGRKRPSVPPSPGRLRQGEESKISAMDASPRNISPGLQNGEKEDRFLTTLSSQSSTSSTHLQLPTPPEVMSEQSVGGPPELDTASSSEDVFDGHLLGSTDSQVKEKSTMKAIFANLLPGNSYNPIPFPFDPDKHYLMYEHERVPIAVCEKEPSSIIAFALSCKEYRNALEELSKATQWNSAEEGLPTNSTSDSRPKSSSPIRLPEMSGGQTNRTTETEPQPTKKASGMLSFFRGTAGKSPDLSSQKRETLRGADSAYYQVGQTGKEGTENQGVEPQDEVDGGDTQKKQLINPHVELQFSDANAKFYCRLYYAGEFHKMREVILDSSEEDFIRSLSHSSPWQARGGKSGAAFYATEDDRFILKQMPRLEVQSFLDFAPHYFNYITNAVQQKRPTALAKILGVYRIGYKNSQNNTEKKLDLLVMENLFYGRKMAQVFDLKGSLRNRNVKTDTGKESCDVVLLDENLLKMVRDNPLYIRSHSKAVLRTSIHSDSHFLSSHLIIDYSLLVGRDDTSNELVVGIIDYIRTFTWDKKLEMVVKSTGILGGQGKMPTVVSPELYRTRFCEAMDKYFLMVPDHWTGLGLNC
Chain of UniProt P48729 (whole entry, looked up): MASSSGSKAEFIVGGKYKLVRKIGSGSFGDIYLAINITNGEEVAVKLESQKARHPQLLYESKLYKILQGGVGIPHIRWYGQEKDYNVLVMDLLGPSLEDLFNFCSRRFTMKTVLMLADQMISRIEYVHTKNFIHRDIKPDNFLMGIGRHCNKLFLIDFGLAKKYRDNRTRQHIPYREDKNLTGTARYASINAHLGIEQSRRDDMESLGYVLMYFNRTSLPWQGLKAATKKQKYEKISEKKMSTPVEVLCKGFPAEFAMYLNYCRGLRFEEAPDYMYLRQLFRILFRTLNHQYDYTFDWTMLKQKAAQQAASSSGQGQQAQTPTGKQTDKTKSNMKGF
Chain of UniProt P51812 (whole entry, looked up): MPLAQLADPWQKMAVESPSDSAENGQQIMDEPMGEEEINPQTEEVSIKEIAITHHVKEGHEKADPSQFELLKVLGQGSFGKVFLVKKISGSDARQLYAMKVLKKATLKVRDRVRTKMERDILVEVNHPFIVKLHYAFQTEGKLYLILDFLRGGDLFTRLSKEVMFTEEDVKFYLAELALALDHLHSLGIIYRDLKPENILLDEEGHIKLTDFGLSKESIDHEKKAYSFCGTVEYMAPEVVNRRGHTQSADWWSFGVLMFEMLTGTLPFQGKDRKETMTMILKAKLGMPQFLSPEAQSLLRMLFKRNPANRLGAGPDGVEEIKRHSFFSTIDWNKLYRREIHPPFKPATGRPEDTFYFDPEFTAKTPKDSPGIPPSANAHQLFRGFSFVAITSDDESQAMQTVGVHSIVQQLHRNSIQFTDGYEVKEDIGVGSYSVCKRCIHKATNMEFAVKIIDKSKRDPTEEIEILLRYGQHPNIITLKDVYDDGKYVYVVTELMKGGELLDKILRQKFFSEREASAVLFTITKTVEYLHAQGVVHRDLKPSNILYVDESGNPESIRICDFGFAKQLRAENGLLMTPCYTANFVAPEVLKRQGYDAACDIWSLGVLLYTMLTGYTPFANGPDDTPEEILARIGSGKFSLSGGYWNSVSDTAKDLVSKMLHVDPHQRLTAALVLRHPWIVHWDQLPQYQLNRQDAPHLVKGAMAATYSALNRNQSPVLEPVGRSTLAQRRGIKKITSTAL
Chain of UniProt Q86UE8 (whole entry, looked up): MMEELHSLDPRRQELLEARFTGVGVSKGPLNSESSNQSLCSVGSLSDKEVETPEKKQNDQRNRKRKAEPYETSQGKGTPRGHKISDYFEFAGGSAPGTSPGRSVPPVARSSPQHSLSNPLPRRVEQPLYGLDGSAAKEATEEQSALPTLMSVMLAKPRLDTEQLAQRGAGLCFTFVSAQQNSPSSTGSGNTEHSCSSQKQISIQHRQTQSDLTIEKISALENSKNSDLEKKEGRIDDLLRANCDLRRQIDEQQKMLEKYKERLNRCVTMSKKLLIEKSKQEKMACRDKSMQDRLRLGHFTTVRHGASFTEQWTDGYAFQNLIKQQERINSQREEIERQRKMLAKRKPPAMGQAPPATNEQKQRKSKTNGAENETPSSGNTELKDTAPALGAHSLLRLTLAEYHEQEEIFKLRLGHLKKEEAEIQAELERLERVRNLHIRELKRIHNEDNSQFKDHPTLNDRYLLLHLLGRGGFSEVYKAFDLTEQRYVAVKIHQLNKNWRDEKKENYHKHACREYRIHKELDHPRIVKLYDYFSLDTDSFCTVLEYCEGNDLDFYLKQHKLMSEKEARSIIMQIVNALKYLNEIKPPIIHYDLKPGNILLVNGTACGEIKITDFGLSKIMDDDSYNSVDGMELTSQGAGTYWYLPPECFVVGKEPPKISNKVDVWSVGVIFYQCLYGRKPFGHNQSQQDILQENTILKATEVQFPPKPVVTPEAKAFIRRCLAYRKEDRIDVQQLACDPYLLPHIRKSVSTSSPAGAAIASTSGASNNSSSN
Chain of UniProt O14730 (whole entry, looked up): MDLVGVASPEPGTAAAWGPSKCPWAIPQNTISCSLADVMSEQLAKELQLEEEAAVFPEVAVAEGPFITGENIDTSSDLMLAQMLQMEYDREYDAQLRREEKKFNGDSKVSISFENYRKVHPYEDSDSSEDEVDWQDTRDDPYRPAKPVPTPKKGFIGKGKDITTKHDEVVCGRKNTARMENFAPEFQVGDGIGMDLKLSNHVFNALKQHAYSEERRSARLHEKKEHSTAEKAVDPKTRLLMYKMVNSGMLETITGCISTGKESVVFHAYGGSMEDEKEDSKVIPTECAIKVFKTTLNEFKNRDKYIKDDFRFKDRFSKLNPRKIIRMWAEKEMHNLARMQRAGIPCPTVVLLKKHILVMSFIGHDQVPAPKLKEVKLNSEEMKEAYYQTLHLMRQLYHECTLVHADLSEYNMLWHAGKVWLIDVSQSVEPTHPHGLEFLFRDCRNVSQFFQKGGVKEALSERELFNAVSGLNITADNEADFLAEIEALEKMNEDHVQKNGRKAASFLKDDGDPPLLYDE

Block 1
Target: Cyclin-dependent kinase 4, with cyclin D1 (CDK4, Homo sapiens, UniProt P11802)
Chain of UniProt P11802 (whole entry, looked up): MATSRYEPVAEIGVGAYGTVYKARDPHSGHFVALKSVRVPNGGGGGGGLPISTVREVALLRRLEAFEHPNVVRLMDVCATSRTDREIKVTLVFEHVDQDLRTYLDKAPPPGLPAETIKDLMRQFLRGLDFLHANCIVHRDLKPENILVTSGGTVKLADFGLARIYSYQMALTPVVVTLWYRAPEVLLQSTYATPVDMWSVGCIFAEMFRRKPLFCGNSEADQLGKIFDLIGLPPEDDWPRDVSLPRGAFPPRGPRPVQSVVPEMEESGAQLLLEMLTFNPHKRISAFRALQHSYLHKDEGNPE
Read-out: enzyme activity
Action: inhibitor
Tested at: 0.5 µM
Relative to: control
For `O=C(O)c1ccc2c3c1cccc3c(=O)n1c3ccccc3nc21`, the remaining activity was 106%.
`COc1cc2ncnc(Nc3ccc(Oc4ccccc4)cc3)c2cc1OC` gave a remaining activity of 113%.
`COc1cc2ncnc(Nc3ccc(F)c(Cl)c3)c2cc1OCCCN1CCOCC1` has a remaining activity of 94.3%.
`Cn1sc(=O)n(Cc2ccccc2)c1=O` has a remaining activity of 98.2%.
`C#Cc1cccc(Nc2ncnc3cc(OCCOC)c(OCCOC)cc23)c1` gave a remaining activity of 96%.
With `Cc1nc(-c2ccccc2)c(-c2ccncc2)o1` the remaining activity was 114%.
With `CN(C)c1ccc(C=C2C(=O)Nc3ccccc32)cc1` the remaining activity was 97.7%.
`Nc1ccc2ncnc(NCCc3ccc(Oc4ccccc4)cc3)c2c1` has a remaining activity of 102%.
`Nc1[nH]nc2nc3ccccc3nc12` gave a remaining activity of 92.4%.
For `O=C1NC(=O)C(c2cn(CCCO)c3ncccc23)=C1c1cnccn1`, the remaining activity was 89.5%.
`COc1cc2nccc(Oc3ccc(NC(=S)NC(=O)c4ccccc4C)cc3)c2cc1OC` gave a remaining activity of 95.1%.
The remaining activity of `Cc1cccc(-c2[nH]c(C(C)(C)C)nc2-c2ccc3c(c2)OCO3)n1` is reported as 105%.
`Oc1ccc(-c2nc(-c3ccncc3)c(-c3ccc(F)cc3)[nH]2)cc1` has a remaining activity of 105%.
`COc1ccc(C(=O)Nc2sc3c(c2C(N)=O)CCCC3)cc1OC` has a remaining activity of 95.9%.
The remaining activity of `Nc1ncnc2n[nH]c(Nc3ccc(F)cc3)c12` is reported as 90.3%.

Block 2
SMILES: C[C@@H]1CN(c2cc(-c3n[nH]c4ccc(OC5(C)CC5)cc34)ncn2)C[C@H](C)O1
Read-out: cell-free assay
Method: competition with immobilised ligand
Tested at: 0.1 µM
Tyrosine-protein kinase ABL1, non-phosphorylated (ABL1, Homo sapiens, UniProt P00519, Q252H) — remaining binding: 100%.
FLT3 (Homo sapiens, UniProt P36888, D835V/ITD) — remaining binding: 75%.
It gave 79% for remaining binding (ERN1 (Homo sapiens, UniProt O75460)).
The remaining binding was 73% (CSNK1A1 (Homo sapiens, UniProt P48729)).
Ribosomal protein S6 kinase alpha-3, C-terminal kinase domain (RPS6KA3, Homo sapiens, UniProt P51812) — remaining binding: 85%.
The remaining binding was 90% (PIKFYVE (Homo sapiens, UniProt Q9Y2I7)).
TLK2 (Homo sapiens, UniProt Q86UE8) — remaining binding: 100%.
For RET (Homo sapiens, UniProt P07949, M918T): remaining binding read 97%.
EPHA7 (Homo sapiens, UniProt Q15375) — remaining binding: 82%.
For TESK1 (Homo sapiens, UniProt Q15569): remaining binding read 75%.
RIOK3 (Homo sapiens, UniProt O14730) — remaining binding: 100%.
It gave 100% for remaining binding (RIPK1 (Homo sapiens, UniProt Q13546)).

Block 3
Read-out: AlphaScreen signal
Method: AlphaScreen counter screen
Medium: His6 peptide without bromodomain
Tested at: 50 µM
Notes: assay interference check
The inhibition of `COc1ccc(Nc2nc(N)nc3[nH]cnc23)cc1` is reported as 11.6%.
The inhibition of `COC(=O)CCC(=O)NNC(=O)c1c(O)c2ccccc2[nH]c1=O` is reported as 17.1%.
`CC(Nc1nc(-c2cncnc2)cnc1N)c1ccccc1` (stereo not shown) gave an inhibition of 17.6%.
`Cc1[nH]c(/C=C2\C(=O)Nc3ccc(S(=O)(=O)Cc4c(Cl)cccc4Cl)cc32)c(C)c1C(=O)N1CCC[C@@H]1CN1CCCC1` gave an inhibition of 70.2%.
For `COc1cc(O)c2c(c1)/C=C/C[C@H](O)[C@H](O)C(=O)/C=C\C[C@H](C)OC2=O`, the inhibition was 17.8%.
With `CN(c1ccccc1CNc1nc(Nc2ccc3c(c2)CC(=O)N3)ncc1C(F)(F)F)S(C)(=O)=O` the inhibition was 35.6%.
`Cc1ccc([N+](=O)[O-])cc1S(=O)(=O)N(C)N=Cc1cnc2ccc(Br)cn12` gave an inhibition of 57%.
`CCN(CC)CCNc1nc(-c2cccc(OC)c2O)nc2ccccc12` has an inhibition of 51.4%.
`CCN(CC)Cc1c(-c2ccc(OC)cc2)[nH]c2ncccc12` gave an inhibition of 1.2%.

Block 4
SMILES: CC(C)n1cnc(-c2ccc(F)cc2)c1-c1ncc(C(=O)Nc2ccc(N3CCN(C)CC3)cc2)[nH]1
Method: Phase 2a trial
Host: idiopathic pulmonary fibrosis patients
The “patients with adverse events” was 0% (measured: chest discomfort; 30 mg once daily, grade 2 maximum intensity).
measured: weight increased; dose not given, grade 2 maximum intensity, all arms — “patients with adverse events”: 0%.
measured: tri-iodothyronine increased; 30 mg once daily, grade 3 maximum intensity — “patients with adverse events”: 0%.
measured: bile acids increased; 30 mg once daily, grade 1 maximum intensity — “patients with adverse events”: 0%.
For measured: urinary tract infection; 30 mg once daily, grade 3 maximum intensity: “patients with adverse events” read 0%.
It gave 0% for “patients with adverse events” (measured: chest discomfort; dose not given, grade 5 maximum intensity, all arms).
The “patients with adverse events” was 0% (measured: neutrophil count increased; 60 mg once daily, grade 5 maximum intensity).
It gave 0% for “patients with adverse events” (measured: muscular weakness; 30 mg once daily, grade 1 maximum intensity).
It gave 0% for “patients with adverse events” (measured: weight increased; dose not given, grade 5 maximum intensity, all arms).
It gave 0% for “patients with adverse events” (measured: neutrophil count increased; dose not given, grade 4 maximum intensity, all arms).
For measured: blood bilirubin increased; 30 mg once daily, grade 2 maximum intensity: “patients with adverse events” read 0%.
The “patients with adverse events” was 0% (measured: vision blurred; 30 mg once daily, grade 1 maximum intensity).
It gave 0% for “patients with adverse events” (measured: respiratory tract infection; 60 mg once daily, grade 3 maximum intensity).

Excerpt of the above (block 1):
`Nc1ccc2ncnc(NCCc3ccc(Oc4ccccc4)cc3)c2c1` has a remaining activity of 102%.
`Nc1[nH]nc2nc3ccccc3nc12` gave a remaining activity of 92.4%.
For `O=C1NC(=O)C(c2cn(CCCO)c3ncccc23)=C1c1cnccn1`, the remaining activity was 89.5%.
`COc1cc2nccc(Oc3ccc(NC(=S)NC(=O)c4ccccc4C)cc3)c2cc1OC` gave a remaining activity of 95.1%.
